Experimental data from different studies.
TDP1: Tyrosyl-DNA phosphodiesterase 1 (TDP1, Homo sapiens, UniProt Q9NUW8)
UniProt Q9NUW8, sequence (whole entry, looked up): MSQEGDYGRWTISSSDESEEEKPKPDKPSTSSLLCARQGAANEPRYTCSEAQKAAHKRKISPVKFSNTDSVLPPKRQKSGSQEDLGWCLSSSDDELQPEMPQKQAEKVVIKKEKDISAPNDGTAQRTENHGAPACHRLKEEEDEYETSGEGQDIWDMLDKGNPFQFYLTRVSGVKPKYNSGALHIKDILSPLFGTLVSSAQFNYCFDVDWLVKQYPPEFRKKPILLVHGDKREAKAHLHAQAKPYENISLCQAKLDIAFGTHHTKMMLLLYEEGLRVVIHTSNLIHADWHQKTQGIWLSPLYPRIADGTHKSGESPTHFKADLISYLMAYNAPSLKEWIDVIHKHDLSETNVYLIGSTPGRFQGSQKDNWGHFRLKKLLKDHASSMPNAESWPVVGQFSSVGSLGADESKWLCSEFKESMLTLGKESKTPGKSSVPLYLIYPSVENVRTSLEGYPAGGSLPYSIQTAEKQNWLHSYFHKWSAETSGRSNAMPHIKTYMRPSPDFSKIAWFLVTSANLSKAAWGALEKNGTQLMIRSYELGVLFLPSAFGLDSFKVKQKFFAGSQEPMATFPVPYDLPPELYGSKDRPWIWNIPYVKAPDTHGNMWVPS

| Structure (SMILES) | tested on | assay | setting | how to read | quantity | result |
| --- | --- | --- | --- | --- | --- | --- |
| O=C(CCl)c1ccccc1Nc1cccc(C(F)(F)F)c1 | HCT-15 | cell growth or viability, SRB | 48 h | – | GI50 | 11.2 µM |
| COc1cc(/C=C/C(=O)/C=C(O)/C=C/c2ccc(OCC(=O)N3CCOCCOCCOCC3)c(OC)c2)ccc1OCC(=O)N1CCOCCOCCOCC1 | HCT-15 | cell growth or viability, SRB | 25 µM | – | inhibition | 30.1% |
| CCN(C(=O)c1cc(F)ccc1Oc1nncnc1N1CCC2(C1)CN([C@H](CCCN(C)CCOC)C(C)C)C2)C(C)C | HCT-15 | cell growth or viability | 72 h | – | GI50 | > 10 µM |
| O=C(Nc1nnc2c1c(-c1ccc(Cl)cc1)nc1sc(=Cc3ccco3)c(=O)n12)c1ccccc1 (mixture of isomers) | HCT-15 | SRB | 10 µM, NCI60 single-dose screen, colon cancer | relative to: untreated | cell growth | 31.7% |
| N#CCn1cc(C=NOCc2ccc(-c3nc4cc(-c5ccccc5)ccn4c3Nc3ccc(C(=O)O)cc3)cc2)c2ccccc21 | TDP1 | enzyme activity, inhibitor | 100 µM, unpurified compound | – | inhibition | 90.8% |
| Cc1ccc(C(C)C)cc1.Cc1ccc(C(C)C)cc1.Cc1ccc(C(C)C)cc1.Cc1ccc(C(C)C)cc1.O=S(=O)(O)C(F)(F)F.O=S(=O)(O)C(F)(F)F.O=S(=O)(O)C(F)(F)F.O=S(=O)(O)C(F)(F)F.c1ccc2c3c4ccccc4c(c2c1)-c1cn(nn1)-c1cc[n+](cc1)[Ru-]1[O]c2c4ccccc4c4c5c(c6ccccc6c(c25)=[O+]1)=[O+][Ru-]([O]4)[n+]1ccc(cc1)-n1cc(nn1)-c1c2ccccc2c(c2ccccc12)-c1cn(nn1)-c1cc[n+](cc1)[Ru-]1[O]c2c4ccccc4c4c5c(c6ccccc6c(c25)=[O+]1)=[O+][Ru-]([O]4)[n+]1ccc(cc1)-n1cc-3nn1 | HCT-15 | cell growth, MTT | 24 h, 20 µM preincubated in medium 48 h at 37 °C | – | IC50 | > 20 µM |
| Cc1ccc(C=NOCc2ccc(-c3nc4cc(-c5ccccc5)ccn4c3Nc3ccc(C(=O)O)cc3)cc2)cc1C | TDP1 | enzyme activity, inhibitor | 100 µM, unpurified compound | – | inhibition | 37.9% |
| COc1cc(/C=C/C(=O)/C=C(O)/C=C/c2ccc(OCC(=O)N3CCOCCOCCOCCOCC3)c(OC)c2)ccc1OCC(=O)N1CCOCCOCCOCCOCC1 | HCT-15 | cell growth or viability, SRB | 25 µM | – | inhibition | 100% |
| CCCC(CCC)C(=O)OCc1cn(-c2cc3ccccc3oc2=O)nn1 | HCT-15 | NCI60 single-dose screen | 10 µM | – | growth percentage | 102% |
| C1=[N+]2CCCC[N+]3=Cc4ccc5[n]4[Au-]23[n]2c1ccc2-c1nc2ccccc2nc1-5.F[P-](F)(F)(F)(F)F | HCT-15 | NCI60 five-dose screen | – | – | TGI | 4 -log M |
